Experimental data of several laboratories.
Numbered parts are unrelated; each lists some results of a single study. Values joined by “and” are separate records of one study, mostly repeats; a detail may differ.
UniProt O14976, sequence (whole entry, looked up): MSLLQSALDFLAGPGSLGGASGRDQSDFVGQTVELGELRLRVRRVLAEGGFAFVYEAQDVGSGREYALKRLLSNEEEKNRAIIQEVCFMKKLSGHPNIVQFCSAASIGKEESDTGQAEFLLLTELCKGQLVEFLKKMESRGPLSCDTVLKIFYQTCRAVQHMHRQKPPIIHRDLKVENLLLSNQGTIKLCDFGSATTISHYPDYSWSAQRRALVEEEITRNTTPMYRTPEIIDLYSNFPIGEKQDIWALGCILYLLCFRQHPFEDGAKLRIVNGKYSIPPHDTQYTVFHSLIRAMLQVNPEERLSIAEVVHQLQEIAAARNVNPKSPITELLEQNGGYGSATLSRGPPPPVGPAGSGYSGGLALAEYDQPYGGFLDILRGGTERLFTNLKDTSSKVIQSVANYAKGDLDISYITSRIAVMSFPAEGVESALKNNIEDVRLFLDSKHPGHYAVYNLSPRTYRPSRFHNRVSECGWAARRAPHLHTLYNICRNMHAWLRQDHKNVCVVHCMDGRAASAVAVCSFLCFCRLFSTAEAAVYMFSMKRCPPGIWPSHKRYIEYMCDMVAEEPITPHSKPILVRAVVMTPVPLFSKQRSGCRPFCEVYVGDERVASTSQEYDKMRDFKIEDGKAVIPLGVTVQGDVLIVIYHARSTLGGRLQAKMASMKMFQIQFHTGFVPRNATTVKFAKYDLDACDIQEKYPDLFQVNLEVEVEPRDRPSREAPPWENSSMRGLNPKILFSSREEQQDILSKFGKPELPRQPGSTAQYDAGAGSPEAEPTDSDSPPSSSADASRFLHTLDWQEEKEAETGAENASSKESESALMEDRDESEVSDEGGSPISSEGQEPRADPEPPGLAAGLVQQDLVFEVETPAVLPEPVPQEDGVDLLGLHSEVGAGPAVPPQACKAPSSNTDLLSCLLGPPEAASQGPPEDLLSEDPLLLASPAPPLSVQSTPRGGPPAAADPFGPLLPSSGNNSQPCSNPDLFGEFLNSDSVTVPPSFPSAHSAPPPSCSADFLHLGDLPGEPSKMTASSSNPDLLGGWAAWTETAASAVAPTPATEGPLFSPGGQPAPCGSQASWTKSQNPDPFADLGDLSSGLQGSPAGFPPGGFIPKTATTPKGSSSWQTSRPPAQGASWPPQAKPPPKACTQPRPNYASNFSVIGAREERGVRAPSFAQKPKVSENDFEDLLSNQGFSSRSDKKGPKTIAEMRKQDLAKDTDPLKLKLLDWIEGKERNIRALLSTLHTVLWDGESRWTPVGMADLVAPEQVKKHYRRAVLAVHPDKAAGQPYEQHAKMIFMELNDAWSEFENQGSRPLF
UniProt P06241, sequence (whole entry, looked up): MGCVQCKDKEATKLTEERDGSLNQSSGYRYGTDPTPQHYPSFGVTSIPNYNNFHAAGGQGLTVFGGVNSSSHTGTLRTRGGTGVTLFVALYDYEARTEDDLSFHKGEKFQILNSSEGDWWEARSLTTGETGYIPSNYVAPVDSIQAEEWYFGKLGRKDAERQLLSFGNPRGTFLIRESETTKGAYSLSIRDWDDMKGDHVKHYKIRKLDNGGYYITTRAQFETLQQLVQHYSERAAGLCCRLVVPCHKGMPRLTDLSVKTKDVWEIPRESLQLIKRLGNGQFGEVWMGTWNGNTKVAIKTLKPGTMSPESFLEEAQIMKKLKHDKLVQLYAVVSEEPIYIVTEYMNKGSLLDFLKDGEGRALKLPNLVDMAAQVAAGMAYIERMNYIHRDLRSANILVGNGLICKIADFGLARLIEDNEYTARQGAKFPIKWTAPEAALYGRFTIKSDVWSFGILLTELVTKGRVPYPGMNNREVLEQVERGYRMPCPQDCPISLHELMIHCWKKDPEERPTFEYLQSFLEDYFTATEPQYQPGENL
UniProt P54760, sequence (whole entry, looked up): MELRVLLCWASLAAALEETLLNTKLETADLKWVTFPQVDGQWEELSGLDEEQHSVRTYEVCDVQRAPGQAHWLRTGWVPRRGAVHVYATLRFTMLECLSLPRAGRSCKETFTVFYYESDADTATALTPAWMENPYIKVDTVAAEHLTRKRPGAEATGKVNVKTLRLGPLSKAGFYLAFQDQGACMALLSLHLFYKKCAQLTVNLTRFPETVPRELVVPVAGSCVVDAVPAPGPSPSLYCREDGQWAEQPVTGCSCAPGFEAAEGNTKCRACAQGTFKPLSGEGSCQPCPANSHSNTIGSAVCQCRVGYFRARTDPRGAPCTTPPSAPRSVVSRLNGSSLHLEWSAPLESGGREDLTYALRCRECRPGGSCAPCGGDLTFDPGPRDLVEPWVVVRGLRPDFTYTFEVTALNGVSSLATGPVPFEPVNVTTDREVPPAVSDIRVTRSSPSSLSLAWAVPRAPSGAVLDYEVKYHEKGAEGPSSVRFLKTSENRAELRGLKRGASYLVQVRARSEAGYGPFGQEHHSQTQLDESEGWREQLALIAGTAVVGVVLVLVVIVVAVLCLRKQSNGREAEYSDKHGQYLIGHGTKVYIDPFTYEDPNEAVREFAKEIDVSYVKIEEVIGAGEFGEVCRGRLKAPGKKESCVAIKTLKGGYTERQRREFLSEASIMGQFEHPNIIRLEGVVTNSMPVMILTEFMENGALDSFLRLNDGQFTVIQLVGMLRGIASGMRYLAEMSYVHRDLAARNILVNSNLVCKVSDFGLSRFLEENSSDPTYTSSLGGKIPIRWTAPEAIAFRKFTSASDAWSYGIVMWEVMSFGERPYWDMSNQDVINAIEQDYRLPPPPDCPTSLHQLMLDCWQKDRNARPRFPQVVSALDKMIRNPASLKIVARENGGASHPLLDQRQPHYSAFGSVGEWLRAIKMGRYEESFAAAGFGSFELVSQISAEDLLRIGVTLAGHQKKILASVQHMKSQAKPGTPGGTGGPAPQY
UniProt P04629, sequence (whole entry, looked up): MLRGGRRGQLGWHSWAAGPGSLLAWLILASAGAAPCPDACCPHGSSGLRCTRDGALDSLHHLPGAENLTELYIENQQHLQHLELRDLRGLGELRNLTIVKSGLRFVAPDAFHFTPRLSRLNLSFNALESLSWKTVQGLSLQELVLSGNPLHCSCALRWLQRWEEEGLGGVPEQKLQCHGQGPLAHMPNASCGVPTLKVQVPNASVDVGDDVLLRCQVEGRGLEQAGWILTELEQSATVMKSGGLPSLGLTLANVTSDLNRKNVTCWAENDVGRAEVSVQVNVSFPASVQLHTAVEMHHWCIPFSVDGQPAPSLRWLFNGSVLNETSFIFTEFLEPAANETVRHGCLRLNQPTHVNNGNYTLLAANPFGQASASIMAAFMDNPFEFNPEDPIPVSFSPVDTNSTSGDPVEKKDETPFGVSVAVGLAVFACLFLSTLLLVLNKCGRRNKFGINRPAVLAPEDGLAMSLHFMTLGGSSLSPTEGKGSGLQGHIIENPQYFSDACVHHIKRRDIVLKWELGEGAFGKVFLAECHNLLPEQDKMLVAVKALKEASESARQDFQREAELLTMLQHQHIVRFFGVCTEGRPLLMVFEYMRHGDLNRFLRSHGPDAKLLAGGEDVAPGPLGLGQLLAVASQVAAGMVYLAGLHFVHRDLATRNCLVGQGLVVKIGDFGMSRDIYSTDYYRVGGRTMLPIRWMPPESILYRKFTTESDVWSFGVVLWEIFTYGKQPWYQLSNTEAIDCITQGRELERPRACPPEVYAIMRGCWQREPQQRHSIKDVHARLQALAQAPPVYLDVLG
UniProt O15075, sequence (whole entry, looked up): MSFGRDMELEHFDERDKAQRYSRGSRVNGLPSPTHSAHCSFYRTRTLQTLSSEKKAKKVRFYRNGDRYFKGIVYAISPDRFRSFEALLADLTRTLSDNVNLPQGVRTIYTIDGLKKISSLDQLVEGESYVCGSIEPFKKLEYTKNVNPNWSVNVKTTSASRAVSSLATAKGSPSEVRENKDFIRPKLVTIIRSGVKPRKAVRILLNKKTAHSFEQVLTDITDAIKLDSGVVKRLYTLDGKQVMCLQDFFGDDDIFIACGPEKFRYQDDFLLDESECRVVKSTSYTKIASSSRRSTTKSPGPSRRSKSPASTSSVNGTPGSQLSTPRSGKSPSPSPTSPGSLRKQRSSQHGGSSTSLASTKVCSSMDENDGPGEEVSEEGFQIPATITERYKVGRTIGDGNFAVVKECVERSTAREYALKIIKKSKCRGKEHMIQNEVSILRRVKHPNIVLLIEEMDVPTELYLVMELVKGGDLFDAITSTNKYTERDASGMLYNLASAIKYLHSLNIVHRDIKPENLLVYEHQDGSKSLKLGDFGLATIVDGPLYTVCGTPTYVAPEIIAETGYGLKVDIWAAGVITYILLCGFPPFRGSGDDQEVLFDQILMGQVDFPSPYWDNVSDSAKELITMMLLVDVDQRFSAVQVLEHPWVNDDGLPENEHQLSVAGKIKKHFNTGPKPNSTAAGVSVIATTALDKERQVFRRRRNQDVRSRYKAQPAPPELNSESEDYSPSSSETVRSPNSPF

Series 1 — tested at: 1 µM
Structure (SMILES): CCCOc1ccc([C@@H]2[C@@H](C(=O)O)[C@H](c3ccc4c(c3)OCO4)CN2CC(=O)Nc2c(CC)cccc2CC)cc1
| target | effect on | technique | remaining binding [%] |
| --- | --- | --- | --- |
| EPHB6 (Homo sapiens, UniProt O15197) | cell-free assay | competition with immobilised ligand | 77 |
| FLT3 (Homo sapiens, UniProt P36888, F691L/ITD) | cell-free assay | competition with immobilised ligand | 63 |
| Ribosomal protein S6 kinase alpha-4, N-terminal kinase domain (RPS6KA4, Homo sapiens, UniProt O75676) | cell-free assay | competition with immobilised ligand | 97 |
| EPHB4 (Homo sapiens, UniProt P54760) | cell-free assay | competition with immobilised ligand | 96 |
| GAK (Homo sapiens, UniProt O14976) | cell-free assay | competition with immobilised ligand | 98 |
| Tyrosine-protein kinase ABL1, phosphorylated (ABL1, Homo sapiens, UniProt P00519) | cell-free assay | competition with immobilised ligand | 80 |
| CLK1 (Homo sapiens, UniProt P49759) | cell-free assay | competition with immobilised ligand | 93 |
| TNK1 (Homo sapiens, UniProt Q13470) | cell-free assay | competition with immobilised ligand | 93 |
| DYRK1A (Homo sapiens, UniProt Q13627) | cell-free assay | competition with immobilised ligand | 86 |
| FYN (Homo sapiens, UniProt P06241) | cell-free assay | competition with immobilised ligand | 87 |
| MAP3K14 (Homo sapiens, UniProt Q99558) | cell-free assay | competition with immobilised ligand | 82 |
| CDK11A (Homo sapiens, UniProt Q9UQ88) | binding | competition with immobilised ligand | 100 |
| DCLK1 (Homo sapiens, UniProt O15075) | cell-free assay | competition with immobilised ligand | 80 |
| AAK1 (Homo sapiens, UniProt Q2M2I8) | binding |  | 90 |
| NTRK1 (Homo sapiens, UniProt P04629) | cell-free assay | competition with immobilised ligand | 97 |

Series 2 — cell line: mouse MPNST tumor cells; technique: high-content nuclear imaging; item: cell number; tested at: 10 µM; time: 12 h; setting: mean of 2 replicates; reference: plate mean; direction: higher = more cells
| SMILES | nuclei count |
| --- | --- |
| Cc1ccc2c(c1CCC(=O)O)CC[C@@H](NS(=O)(=O)c1ccc(Cl)cc1)C2 | -1.36 z-score |
| CCCn1c(=O)[nH]c2nc(-c3ccc(S(=O)(=O)N4CCN(Cc5ccc(Cl)cc5)CC4)cc3)[nH]c2c1=O | 0.463 z-score |
| CN1CCN2c3ncccc3Cc3ccccc3C2C1 (stereo not drawn) | 0.0448 z-score and 0.474 z-score |
| Cc1ccc(S(=O)(=O)c2c(C)cc(C)cc2C)cc1 | -1.07 z-score |
| CN1CCCN=C1/C=C/c1cccs1 | -0.495 z-score |
| CN(C)CCN(Cc1ccc(Cl)cc1)c1ccccn1 | 0.404 z-score |
| CCCc1nc2nc(C)c(NS(=O)(=O)c3ccc(C4CCCCC4)cc3)c(=O)n2[nH]1 | 1.13 z-score |

Series 3 — effect on: enzyme activity; mode: inhibitor; tested at: 0.5 µM; reference: control
Target: Protein kinase C beta type, isoform beta-II (PRKCB, Homo sapiens, UniProt P05771)
UniProt P05771, sequence (whole entry, looked up): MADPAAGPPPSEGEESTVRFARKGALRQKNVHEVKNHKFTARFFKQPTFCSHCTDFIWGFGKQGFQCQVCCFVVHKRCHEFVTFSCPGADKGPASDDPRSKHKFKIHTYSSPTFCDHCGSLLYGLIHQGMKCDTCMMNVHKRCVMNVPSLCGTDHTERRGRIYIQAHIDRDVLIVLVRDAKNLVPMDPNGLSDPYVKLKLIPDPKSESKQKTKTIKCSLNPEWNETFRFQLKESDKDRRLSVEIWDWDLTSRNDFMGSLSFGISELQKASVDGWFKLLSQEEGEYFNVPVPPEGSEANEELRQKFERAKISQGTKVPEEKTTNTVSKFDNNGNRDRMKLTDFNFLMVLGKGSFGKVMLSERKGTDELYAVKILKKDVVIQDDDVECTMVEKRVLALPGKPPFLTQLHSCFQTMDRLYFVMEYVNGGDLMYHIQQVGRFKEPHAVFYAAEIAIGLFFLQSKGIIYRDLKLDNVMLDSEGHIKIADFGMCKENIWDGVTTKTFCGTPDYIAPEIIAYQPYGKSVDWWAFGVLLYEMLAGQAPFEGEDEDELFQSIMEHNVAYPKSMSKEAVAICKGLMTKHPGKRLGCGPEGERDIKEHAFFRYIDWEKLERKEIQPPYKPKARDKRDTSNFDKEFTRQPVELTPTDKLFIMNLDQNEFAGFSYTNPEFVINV
| Structure (SMILES) | remaining activity [%] |
| --- | --- |
| C[C@@H](N)[C@H]1CC[C@H](C(=O)Nc2ccncc2)CC1 | 124 |
| COc1cc2c(Nc3ccc(Br)cc3F)ncnc2cc1OCC1CCN(C)CC1 | 91.6 |
| O=C1c2ccccc2-c2nc3nnnn3nc21 | 29.3 |
| CCCCc1c(-c2ccc(O)cc2)[nH]c2nccnc12 | 118 |
| CC(C)N(CCC(=O)c1ccc2ccccc2c1)Cc1ccccc1 | 101 |
| CCN(CC)CCCCN1c2ccccc2Oc2ccc(Cl)cc21 | 102 |
| NC(=O)c1cccc(-c2cc(Nc3ccc(OC(F)(F)F)cc3)ncn2)c1 | 122 |
| O=Nc1c(-c2c(O)[nH]c3ccccc23)[nH]c2ccccc12 | 101 |
| CC(C)n1cnc2c(Nc3cccc(Cl)c3)nc(NCCO)nc21 | 99.7 |
| O=C(c1ccccc1)c1ccc(N2CCOCC2)cc1O | 99.2 |
| CC(C)(C)c1nc2c3cc[nH]c(=O)c3c3cc(F)ccc3c2[nH]1 | 90.6 |
| COc1cc2c(N3CCN(C(=O)Nc4ccc(OC(C)C)cc4)CC3)ncnc2cc1OCCCN1CCCCC1 | 93.1 |
| O=C1NC(=O)/C(=C/c2ccc3c(c2)OC(F)(F)O3)S1 | 97.6 |
| O=c1c(-c2ccc(F)cc2)c(-c2ccncc2)[nH]n1-c1ccc(Cl)cc1 | 92.4 |
| NC(=O)c1ccc(-c2nc(-c3ccc4c(c3)OCCO4)c(-c3ccccn3)[nH]2)cc1 | 95.2 |
| CNc1cc2c(Nc3cccc(Br)c3)ncnc2cn1 | 102 |
| Clc1ccc(Nc2nnc(Cc3ccncc3)c3ccccc23)cc1 | 97.2 |
| c1cc(-c2cnn3cc(-c4ccc(OCCN5CCCCC5)cc4)cnc23)ccn1 | 127 |
| Nc1nc(Nc2ccc(S(N)(=O)=O)cc2)nn1C(=S)Nc1c(F)cccc1F | 74.5 |
| FC(F)(F)c1ccc(/C=C/c2nc(COc3ccc(CCCCn4ccnn4)cc3)co2)cc1 | 93.1 |

Series 4 — technique: phase 2a trial; species: idiopathic pulmonary fibrosis patients
SMILES: CC(C)n1cnc(-c2ccc(F)cc2)c1-c1ncc(C(=O)Nc2ccc(N3CCN(C)CC3)cc2)[nH]1
| dose | setting | patients with diarrhoea [%] |
| --- | --- | --- |
| 30 mg once daily | adverse event grade 4 | 0 |
| 30 mg once daily | adverse event grade 3 | 0 |
| 60 mg once daily | adverse event grade 5 | 0 |
